{"data": "Measured values from different studies", "note": "Parts stem from different laboratories: compare values within a part only. Changes are numbered by the printed parent chain."}
{"data": "Sample 1", "target": "Interferon regulatory factor 3, full length, phosphomimetic (IRF3, Homo sapiens, UniProt Q14653, residues 1-427, S386D/S396D/S398D/S402D/T404D/S405D)", "technique": "protein-binding microarray", "molecule type": "double-stranded DNA, one strand shown", "medium": "in vitro", "concentration": "2540 nM top", "notes": "60-bp whole probe", "with": "salmon DNA 0.4 mg/ml", "relative to": "random background probes", "reading": "higher = stronger binding", "constant ends, left off below": "GCCTAGCAC … GTCTTGATTCGCTTGACGCTGCTG", "Residues (chain)": "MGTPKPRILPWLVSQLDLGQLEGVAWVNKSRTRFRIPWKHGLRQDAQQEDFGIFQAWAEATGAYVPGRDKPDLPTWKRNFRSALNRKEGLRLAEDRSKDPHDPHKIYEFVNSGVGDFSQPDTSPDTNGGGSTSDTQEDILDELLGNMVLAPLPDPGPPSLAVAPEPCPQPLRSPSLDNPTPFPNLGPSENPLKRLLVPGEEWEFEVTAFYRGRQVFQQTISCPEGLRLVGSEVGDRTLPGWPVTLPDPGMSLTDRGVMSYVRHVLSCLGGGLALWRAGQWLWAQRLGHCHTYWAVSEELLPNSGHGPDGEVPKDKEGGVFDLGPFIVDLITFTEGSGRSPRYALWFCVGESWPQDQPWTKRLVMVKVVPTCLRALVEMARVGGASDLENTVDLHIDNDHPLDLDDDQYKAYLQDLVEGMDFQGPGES"}
{"Oligonucleotide": "TCATATTCAGGTATATAACTGTGCTAG", "fitted relative affinity [z-score]": 1.05}
{"Oligonucleotide": "TCACTTTTCATTACTGCACTGTGCTAG", "fitted relative affinity [z-score]": 2.64}
{"Oligonucleotide": "GACGGTTTCGGGTATGGGGACGTGCTA", "fitted relative affinity [z-score]": 4.55}
{"Oligonucleotide": "GACGGTCTCTTACTGCTGACGTGCTAG", "fitted relative affinity [z-score]": 0.0946}
{"Oligonucleotide": "GACGATTTCAGTTTAGAGACGTGCTAG", "fitted relative affinity [z-score]": 2.81}
{"Oligonucleotide": "TTTTGTTTTTCATTATTGTCGTGCTAG", "fitted relative affinity [z-score]": 4.16}
{"Oligonucleotide": "GACGGTTTCGGGTTTCGGGAAGTGCTA", "fitted relative affinity [z-score]": 6.18}
{"Oligonucleotide": "GACGGTATCGGGTATCGGGACGTGCTA", "fitted relative affinity [z-score]": 2.12}
{"Oligonucleotide": "GACGATATCAGTACCGAGACGTGCTAG", "fitted relative affinity [z-score]": 0.57}
{"Oligonucleotide": "TTAAGTTTCCTTCTCCTTTAGTGCTAG", "fitted relative affinity [z-score]": 11.4}
{"Oligonucleotide": "TTAGGTTCCCTTTTCCTCTAGTGCTAG", "fitted relative affinity [z-score]": 7.57}
{"Oligonucleotide": "AAATTTTGATGAACTTAAGCGTGCTAG", "fitted relative affinity [z-score]": -0.204}
{"Oligonucleotide": "TTAGGTTTCGGGAATCGGTTAGTGCTA", "fitted relative affinity [z-score]": 3.13}
{"Oligonucleotide": "TGAACTTGGAATTTCCCTCTGTGCTAG", "fitted relative affinity [z-score]": 0.64}
{"Oligonucleotide": "TTAGGTATCGCTATCGGTTAGTGCTAG", "fitted relative affinity [z-score]": 2.71}
{"Oligonucleotide": "TTAGCTTTCCTTTCCCTTTAGTGCTAG", "fitted relative affinity [z-score]": 8.6}
{"Oligonucleotide": "GACGGATTCGGGACTGGGGACGTGCTA", "fitted relative affinity [z-score]": 0.707}
{"Oligonucleotide": "TTAGCTTTCCTACTGCTTTAGTGCTAG", "fitted relative affinity [z-score]": 2.63}
{"Oligonucleotide": "GACGAACTGAAACTGGAGACGTGCTAG", "fitted relative affinity [z-score]": 0.807}
{"data": "Sample 2", "target": "CCNF, cyclin fold, Cln2 fusion (human)", "technique": "yeast growth competition, sequencing", "medium": "yeast", "notes": "strong parent motif", "relative to": "not given", "reading": "higher = stronger binding", "starting sequence": "PKN2 docking peptide (human); VSAVRKLDFSDTM"}
{"Substitution": "D8C", "normalised enrichment score": 8.29}
{"Substitution": "V4R", "normalised enrichment score": 7.39}
{"Substitution": "F9G", "normalised enrichment score": 0.238}
{"Substitution": "D8E", "normalised enrichment score": 7}
{"Substitution": "R5P", "normalised enrichment score": -0.378}
{"Substitution": "K6Q", "normalised enrichment score": 6.6}
{"Substitution": "K6I", "normalised enrichment score": 6.04}
{"Substitution": "F9N", "normalised enrichment score": -0.0371}
{"Substitution": "S10C", "normalised enrichment score": 7.27}
{"Substitution": "K6T", "normalised enrichment score": 6.04}
{"Substitution": "S10V", "normalised enrichment score": 6.49}
{"Substitution": "A3F", "normalised enrichment score": 5.81}
{"Substitution": "S10R", "normalised enrichment score": 7.51}
{"Substitution": "K6G", "normalised enrichment score": 4.62}
{"Substitution": "S2Y", "normalised enrichment score": 6.91}
{"Substitution": "K6M", "normalised enrichment score": 6.75}
{"Substitution": "S2R", "normalised enrichment score": 7.57}
{"Substitution": "A3L", "normalised enrichment score": 6.62}
{"Substitution": "T12G", "normalised enrichment score": 6.03}
{"Substitution": "L7E", "normalised enrichment score": -0.00204}
{"Substitution": "F9P", "normalised enrichment score": 0.596}
{"Substitution": "L7Q", "normalised enrichment score": -0.19}
{"Substitution": "A3S", "normalised enrichment score": 6.11}
{"Substitution": "S2Q", "normalised enrichment score": 7.41}
{"Substitution": "A3T", "normalised enrichment score": 7.23}
{"data": "Sample 3", "target": "ABI1, truncated, D143A, DHFR fusion (Arabidopsis thaliana)", "technique": "DHFR PCA, deep sequencing", "medium": "yeast", "notes": "methotrexate growth selection, single substitutions", "with": "(+)-ABA 710 µM", "relative to": "wild-type fitted maximum", "reading": "higher = stronger binding", "starting sequence": "PYL1, truncated, DHFR fusion (Arabidopsis thaliana); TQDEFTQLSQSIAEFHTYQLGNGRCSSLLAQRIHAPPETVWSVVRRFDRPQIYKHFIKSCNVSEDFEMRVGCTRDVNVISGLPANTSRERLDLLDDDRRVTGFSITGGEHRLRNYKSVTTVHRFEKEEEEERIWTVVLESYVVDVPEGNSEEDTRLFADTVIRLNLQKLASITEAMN; partner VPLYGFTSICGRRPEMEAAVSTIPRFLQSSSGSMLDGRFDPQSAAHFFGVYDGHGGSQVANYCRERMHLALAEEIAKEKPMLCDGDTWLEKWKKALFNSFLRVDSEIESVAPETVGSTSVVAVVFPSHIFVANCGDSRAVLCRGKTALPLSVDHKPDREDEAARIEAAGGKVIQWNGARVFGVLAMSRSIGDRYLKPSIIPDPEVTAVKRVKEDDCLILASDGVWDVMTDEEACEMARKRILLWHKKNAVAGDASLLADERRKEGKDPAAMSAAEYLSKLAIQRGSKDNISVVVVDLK"}
{"Substitution": "A84R", "relative binding score [%]": 9.39}
{"Substitution": "N165I", "relative binding score [%]": -14.6}
{"Substitution": "E129S", "relative binding score [%]": 114}
{"Substitution": "D96Q", "relative binding score [%]": 82.6}
{"Substitution": "D48V", "relative binding score [%]": 32.4}
{"Substitution": "F5D", "relative binding score [%]": 101}
{"Substitution": "E64V", "relative binding score [%]": 101}
{"Substitution": "R123M", "relative binding score [%]": 102}
{"Substitution": "G148L", "relative binding score [%]": 83.3}
{"Substitution": "G107P", "relative binding score [%]": 53.2}
{"Substitution": "L29G", "relative binding score [%]": 33.5}
{"Substitution": "L138V", "relative binding score [%]": 92.3}
{"Substitution": "R74H", "relative binding score [%]": -25.8}
{"Substitution": "T106I", "relative binding score [%]": 120}
{"Substitution": "K126C", "relative binding score [%]": 107}
{"Substitution": "Q51H", "relative binding score [%]": 101}
{"Substitution": "K168T", "relative binding score [%]": 99.8}
{"Substitution": "Q10I", "relative binding score [%]": 88.1}
{"Substitution": "T135Y", "relative binding score [%]": -3.84}
{"data": "Sample 4", "target": "PABPC1L2, full length, GST fusion (mouse, UniProt A0ABA7IW68)", "technique": "RNAcompete", "molecule type": "RNA", "medium": "in vitro", "concentration": "20 nM", "notes": "7-mer, probes averaged, single round", "relative to": "mean of 7-mers", "reading": "higher = stronger binding"}
{"Oligonucleotide": "CAUUCUC", "7-mer Z-score": -0.438}
{"Oligonucleotide": "CGGACCA", "7-mer Z-score": -0.00289}
{"Oligonucleotide": "AGCGCAG", "7-mer Z-score": 0.0261}
{"Oligonucleotide": "UGAAAGU", "7-mer Z-score": 0.0261}
{"Oligonucleotide": "CAAACCC", "7-mer Z-score": -0.255}
{"Oligonucleotide": "UAGAUCA", "7-mer Z-score": -0.0935}
{"Oligonucleotide": "UAUCUCG", "7-mer Z-score": -0.298}
{"Oligonucleotide": "GCUGGGG", "7-mer Z-score": 0.106}
{"Oligonucleotide": "UAAAAUG", "7-mer Z-score": 2.39}
{"Oligonucleotide": "UAUUUUU", "7-mer Z-score": -0.364}
{"Oligonucleotide": "GCGAUUC", "7-mer Z-score": -0.246}
{"Oligonucleotide": "CUAGUCA", "7-mer Z-score": -0.411}
{"Oligonucleotide": "AGAUCCA", "7-mer Z-score": -0.0863}
{"Oligonucleotide": "GUGGAUG", "7-mer Z-score": 0.321}
{"Oligonucleotide": "UUUCCCA", "7-mer Z-score": -0.342}
{"Oligonucleotide": "CAAUCUA", "7-mer Z-score": -0.0482}
{"Oligonucleotide": "CACUAUC", "7-mer Z-score": -0.151}
{"Oligonucleotide": "AUGACGG", "7-mer Z-score": 0.128}
{"Oligonucleotide": "AAGGAGU", "7-mer Z-score": 0.195}
{"data": "Sample 5", "target": "Histone acetyltransferase KAT6A, winged helix 2, GST fusion (KAT6A, Homo sapiens, UniProt Q92794, residues 85-181)", "technique": "protein binding microarray", "molecule type": "double-stranded DNA, one strand shown", "medium": "in vitro", "concentration": "not given", "notes": "8-mer, flanks averaged, mean of 2 arrays, mostly near background", "relative to": "not given", "reading": "higher = stronger binding", "Target sequence (chain)": "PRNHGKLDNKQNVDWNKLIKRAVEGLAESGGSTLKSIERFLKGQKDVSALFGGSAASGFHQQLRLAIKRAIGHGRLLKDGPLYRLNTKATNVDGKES"}
{"Oligonucleotide": "ACGCGACG", "E-score": 0.0231}
{"Oligonucleotide": "CCCTTGTA", "E-score": -0.0839}
{"Oligonucleotide": "AATCGCCC", "E-score": -0.071}
{"Oligonucleotide": "AATTTAGG", "E-score": 0.0523}
{"Oligonucleotide": "AAGCAGCG", "E-score": 0.159}
{"Oligonucleotide": "AAACTTAT", "E-score": 0.0609}
{"Oligonucleotide": "GACCCCCC", "E-score": 0.0255}
{"Oligonucleotide": "CCGCAGTC", "E-score": 0.152}
{"Oligonucleotide": "ACGGAAAC", "E-score": -0.203}
{"Oligonucleotide": "CAGAGTAA", "E-score": 0.0348}
{"Oligonucleotide": "AACCTAAC", "E-score": 0.048}
{"Oligonucleotide": "ATGAGGTG", "E-score": -0.0939}
{"Oligonucleotide": "GCCACTGA", "E-score": 0.111}
{"Oligonucleotide": "GCCAATAA", "E-score": 0.00459}
{"Oligonucleotide": "AACCGGCA", "E-score": 0.0551}
{"Oligonucleotide": "CGGGAAAC", "E-score": 0.187}
{"note": "Repeated from above (sample 2):"}
{"Substitution": "R5P", "normalised enrichment score": -0.378}
{"Substitution": "A3F", "normalised enrichment score": 5.81}
{"Substitution": "K6Q", "normalised enrichment score": 6.6}
{"Substitution": "S2R", "normalised enrichment score": 7.57}
{"Substitution": "F9N", "normalised enrichment score": -0.0371}
{"Substitution": "S2Q", "normalised enrichment score": 7.41}
{"Substitution": "K6I", "normalised enrichment score": 6.04}
{"Substitution": "D8E", "normalised enrichment score": 7}
{"Substitution": "S10R", "normalised enrichment score": 7.51}
